Measured values pooled from the literature.
A part holds a random share of what one study measured. “And” joins repeats or separate records; there may be more than shown.
Sequence of UniProt P10721 (whole entry, unmodified, looked up): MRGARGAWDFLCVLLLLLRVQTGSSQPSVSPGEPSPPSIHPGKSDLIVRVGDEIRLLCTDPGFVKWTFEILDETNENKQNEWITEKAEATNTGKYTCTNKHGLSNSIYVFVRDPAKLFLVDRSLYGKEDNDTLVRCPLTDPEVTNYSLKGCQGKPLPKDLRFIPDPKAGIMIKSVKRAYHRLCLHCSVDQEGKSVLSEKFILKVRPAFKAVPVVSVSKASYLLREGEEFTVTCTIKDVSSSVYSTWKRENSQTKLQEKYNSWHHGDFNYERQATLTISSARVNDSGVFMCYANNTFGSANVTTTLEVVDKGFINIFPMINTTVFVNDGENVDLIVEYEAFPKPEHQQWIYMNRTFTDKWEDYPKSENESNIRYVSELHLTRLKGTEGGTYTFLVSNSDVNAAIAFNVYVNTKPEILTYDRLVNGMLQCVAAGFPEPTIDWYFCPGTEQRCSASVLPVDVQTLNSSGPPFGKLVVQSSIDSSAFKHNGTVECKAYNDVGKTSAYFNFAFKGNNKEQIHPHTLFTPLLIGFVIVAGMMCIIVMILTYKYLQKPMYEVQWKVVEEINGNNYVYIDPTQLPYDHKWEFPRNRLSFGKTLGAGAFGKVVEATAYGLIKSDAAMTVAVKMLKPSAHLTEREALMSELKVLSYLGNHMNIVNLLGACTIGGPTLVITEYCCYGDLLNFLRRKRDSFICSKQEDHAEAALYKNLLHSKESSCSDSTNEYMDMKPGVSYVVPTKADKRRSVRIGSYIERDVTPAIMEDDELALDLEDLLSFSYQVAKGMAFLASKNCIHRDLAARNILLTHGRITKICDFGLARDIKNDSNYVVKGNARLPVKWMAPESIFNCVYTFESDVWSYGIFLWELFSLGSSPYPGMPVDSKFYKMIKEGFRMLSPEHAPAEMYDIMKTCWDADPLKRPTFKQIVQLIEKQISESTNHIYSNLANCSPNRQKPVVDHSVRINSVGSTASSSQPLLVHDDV
Sequence of UniProt Q15208 (whole entry, looked up): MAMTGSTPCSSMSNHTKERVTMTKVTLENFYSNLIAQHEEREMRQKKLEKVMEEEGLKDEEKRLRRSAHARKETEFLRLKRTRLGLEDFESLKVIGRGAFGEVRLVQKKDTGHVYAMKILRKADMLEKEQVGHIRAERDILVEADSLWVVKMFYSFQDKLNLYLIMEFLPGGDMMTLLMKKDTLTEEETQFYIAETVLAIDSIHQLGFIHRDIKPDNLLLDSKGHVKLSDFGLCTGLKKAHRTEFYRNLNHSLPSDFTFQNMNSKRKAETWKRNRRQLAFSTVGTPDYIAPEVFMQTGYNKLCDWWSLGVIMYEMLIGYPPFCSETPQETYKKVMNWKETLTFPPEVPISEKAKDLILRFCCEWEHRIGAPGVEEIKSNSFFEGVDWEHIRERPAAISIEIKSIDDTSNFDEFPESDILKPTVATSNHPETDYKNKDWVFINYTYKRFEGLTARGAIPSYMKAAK
Sequence of UniProt P48729 (whole entry, looked up): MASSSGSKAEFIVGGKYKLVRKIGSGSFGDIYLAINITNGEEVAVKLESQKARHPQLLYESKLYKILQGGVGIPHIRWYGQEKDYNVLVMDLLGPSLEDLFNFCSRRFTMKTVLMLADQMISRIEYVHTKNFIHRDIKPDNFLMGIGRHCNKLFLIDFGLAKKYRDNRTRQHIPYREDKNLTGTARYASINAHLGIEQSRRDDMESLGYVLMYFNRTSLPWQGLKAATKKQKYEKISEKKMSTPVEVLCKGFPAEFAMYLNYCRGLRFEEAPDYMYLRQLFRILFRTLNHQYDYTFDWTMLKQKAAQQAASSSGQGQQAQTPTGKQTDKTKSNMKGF
Sequence of UniProt O00329 (whole entry, looked up): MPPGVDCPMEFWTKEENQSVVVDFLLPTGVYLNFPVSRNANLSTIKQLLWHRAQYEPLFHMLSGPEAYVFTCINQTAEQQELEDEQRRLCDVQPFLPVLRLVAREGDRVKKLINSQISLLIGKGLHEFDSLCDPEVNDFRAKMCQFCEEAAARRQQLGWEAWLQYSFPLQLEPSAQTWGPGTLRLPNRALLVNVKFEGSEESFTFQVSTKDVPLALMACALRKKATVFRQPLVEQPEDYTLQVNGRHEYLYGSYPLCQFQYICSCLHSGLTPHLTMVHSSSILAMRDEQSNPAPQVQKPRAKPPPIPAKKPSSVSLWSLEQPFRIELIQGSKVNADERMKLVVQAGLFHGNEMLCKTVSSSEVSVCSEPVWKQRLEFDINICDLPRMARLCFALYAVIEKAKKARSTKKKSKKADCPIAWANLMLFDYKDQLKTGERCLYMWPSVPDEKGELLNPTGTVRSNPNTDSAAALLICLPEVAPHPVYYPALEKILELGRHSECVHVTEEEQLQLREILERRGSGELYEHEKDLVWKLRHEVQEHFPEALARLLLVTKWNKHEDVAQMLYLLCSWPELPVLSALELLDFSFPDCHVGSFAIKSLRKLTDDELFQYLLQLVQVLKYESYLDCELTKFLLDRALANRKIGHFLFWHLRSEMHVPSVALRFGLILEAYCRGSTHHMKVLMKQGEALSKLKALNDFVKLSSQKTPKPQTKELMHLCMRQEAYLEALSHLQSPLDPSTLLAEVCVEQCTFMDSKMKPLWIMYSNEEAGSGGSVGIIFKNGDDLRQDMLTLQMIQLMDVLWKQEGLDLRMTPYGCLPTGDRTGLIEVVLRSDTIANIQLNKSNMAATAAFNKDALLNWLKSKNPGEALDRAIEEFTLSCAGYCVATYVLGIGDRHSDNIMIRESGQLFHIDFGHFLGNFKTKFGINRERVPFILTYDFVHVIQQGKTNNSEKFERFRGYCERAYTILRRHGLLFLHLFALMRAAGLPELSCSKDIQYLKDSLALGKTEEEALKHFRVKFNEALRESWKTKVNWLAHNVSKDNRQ
Sequence of UniProt Q96BR1 (whole entry, looked up): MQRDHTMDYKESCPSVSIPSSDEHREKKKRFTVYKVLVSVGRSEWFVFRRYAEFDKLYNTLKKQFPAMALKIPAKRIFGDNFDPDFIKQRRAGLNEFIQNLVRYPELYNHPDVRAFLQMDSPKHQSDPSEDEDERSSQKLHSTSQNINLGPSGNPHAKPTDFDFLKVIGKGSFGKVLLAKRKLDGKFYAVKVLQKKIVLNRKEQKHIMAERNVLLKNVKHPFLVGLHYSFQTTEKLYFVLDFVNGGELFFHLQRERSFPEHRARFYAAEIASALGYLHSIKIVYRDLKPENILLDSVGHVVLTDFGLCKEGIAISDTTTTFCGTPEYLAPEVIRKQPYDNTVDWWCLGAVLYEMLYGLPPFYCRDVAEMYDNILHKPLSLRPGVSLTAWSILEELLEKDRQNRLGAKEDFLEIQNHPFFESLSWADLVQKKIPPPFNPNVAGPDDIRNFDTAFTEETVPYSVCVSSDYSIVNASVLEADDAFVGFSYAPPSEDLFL
Sequence of UniProt O14733 (whole entry, looked up): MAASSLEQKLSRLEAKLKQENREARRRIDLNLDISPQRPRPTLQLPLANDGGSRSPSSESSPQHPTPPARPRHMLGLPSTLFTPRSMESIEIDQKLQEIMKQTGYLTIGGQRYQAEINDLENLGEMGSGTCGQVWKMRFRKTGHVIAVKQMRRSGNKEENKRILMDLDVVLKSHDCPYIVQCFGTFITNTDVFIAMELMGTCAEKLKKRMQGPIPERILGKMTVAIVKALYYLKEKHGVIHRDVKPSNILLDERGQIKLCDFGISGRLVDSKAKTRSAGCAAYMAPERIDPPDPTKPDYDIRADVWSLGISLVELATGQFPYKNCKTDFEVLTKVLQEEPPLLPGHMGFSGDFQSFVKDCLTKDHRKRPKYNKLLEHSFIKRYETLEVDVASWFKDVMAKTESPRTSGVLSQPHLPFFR

Study 1
Structure (SMILES): Cc1cc2c(C(N)=O)c(N)n(-c3c(C)ccc(O)c3C)c2nc1C
SRC: Proto-oncogene tyrosine-protein kinase Src (SRC, Homo sapiens, UniProt P12931)
target or system | test | conditions | inhibition
HCC1569 | automated capillary immunoblot, refers to: CDK1 phospho-Thr14 | 111.11 nM | 65.6%
SRC | enzyme activity, inhibitor, TR-FRET | 0.3704 µM | 97.4%
HCC1569 | automated capillary immunoblot, refers to: CDK1 phospho-Thr14 | 0.15 nM | 15.3%
U-251 MG | cell growth | 3333.33 nM | 83.5%
SRC | kinase activity, HTRF | 0.001524 µM | 19.6%
HCC1569 | automated capillary immunoblot, refers to: CDK1 phospho-Thr14 | 0.02 nM | 2.85%
NCI-H1648 | cell proliferation | 41.15 nM | -23.2% and -33% and -32.4%
NCI-H1648 | cell proliferation | 4.572 nM | -21.7% and -23.3% and -18%
SRC | kinase activity, inhibitor, HTRF | 0.1235 µM | 93.1%
HCC1569 | automated capillary immunoblot, refers to: CDK1 phospho-Thr14 | 1.37 nM | 16.6%
U-251 MG | cell growth | 30000 nM | 98.3%
SW1463 | cell proliferation | 10000 nM | 96.7%
MKN-1 | cell proliferation | 1.524 nM | -0.87% and -1.09% and -0.69%
MDA-MB-436 | cell proliferation | 10000 nM | 95.6%
NCI-H1568 | cell growth | 10000 nM | 96.6%
SRC | kinase activity, HTRF | 10 µM | 101%
SRC | kinase activity, HTRF | 3.333 µM | 100%
MDA-MB-436 | cell proliferation | 13.72 nM | -0.19% and 6.84% and 9.62%
NCI-H1568 | cell proliferation | 1111.11 nM | 42.8% and 41.1%
SW1463 | cell proliferation | 1.52 nM | -0.78% and -1.41%

Study 2
Target: Beta-1 adrenergic receptor (ADRB1, Homo sapiens, UniProt P08588)
Sequence of UniProt P08588 (whole entry, looked up): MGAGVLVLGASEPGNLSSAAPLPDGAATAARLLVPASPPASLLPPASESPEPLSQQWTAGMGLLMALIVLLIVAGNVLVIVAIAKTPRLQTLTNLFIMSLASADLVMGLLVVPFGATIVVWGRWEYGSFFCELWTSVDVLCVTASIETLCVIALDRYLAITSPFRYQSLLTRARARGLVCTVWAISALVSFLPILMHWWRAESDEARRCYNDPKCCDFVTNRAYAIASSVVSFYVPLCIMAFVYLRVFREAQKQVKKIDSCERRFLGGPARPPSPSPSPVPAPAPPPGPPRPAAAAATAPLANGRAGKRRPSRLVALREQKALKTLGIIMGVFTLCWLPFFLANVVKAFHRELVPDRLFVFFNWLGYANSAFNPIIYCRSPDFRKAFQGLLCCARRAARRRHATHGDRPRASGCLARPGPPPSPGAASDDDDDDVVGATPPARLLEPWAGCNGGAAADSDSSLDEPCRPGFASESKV
Mode: agonist
SMILES | EC50
C/C=C(/C)c1c(Cl)c(O)c(C)c2c1Oc1c(Cl)c(O)c(Cl)c(C)c1C(=O)O2 | ≥ 100 µM
COc1cc(NC(=O)NCCN2CCN(c3ccccc3)CC2)cc(OC)c1OC | ≥ 100 µM
Cc1nc(Nc2n[nH]c3c2CN(C(=O)N[C@H](CN(C)C)c2ccccc2)C3(C)C)c2sccc2n1 | ≥ 100 µM
Cc1cc(C)n(-c2cccc(NC(=O)Cc3noc4ccccc34)c2)n1 | ≥ 100 µM
CCN(CC)c1ccc(C2=C(Cl)C(=O)c3ncccc3C2=O)cc1 | ≥ 100 µM
O=C1COc2ccc(-c3ccccc3)nc2CN1 | ≥ 100 µM
O=C(COc1ccccc1)Nc1ccc([C@@H](O)[C@H]2COCC(=O)N2CC2CC2)cc1 | ≥ 100 µM
O=c1cc(N2CCOCC2)oc2c(NCc3ccc(F)cc3)nccc12 | ≥ 100 µM
CNc1nc(-c2cccc3ccccc23)ccc1C#N | ≥ 100 µM
Fc1ccc(-c2ccc3ncc(Nc4ccnc(N5CCOCC5)c4)n3n2)cc1 | ≥ 100 µM
COc1ccc(CC(C)(C)NC[C@H](O)c2cc(O)cc3c2OCC(=O)N3)cc1 | ≥ 100 µM
COc1ccccc1N1CCC(N2CCN(CCCc3ccccc3)C(CCO)C2)CC1 (centres unmarked) | ≥ 100 µM
COc1ccc(Nc2n[nH]c(C(O)c3ccccc3)n2)cc1OC (centres unmarked) | ≥ 100 µM
CN(C)c1cccc(-c2nccc3c(=O)cc(N(C)C4CCOCC4)oc23)c1 | ≥ 100 µM
O=C(NCCc1nccc(-c2ccccc2)n1)c1ccc2cccc(F)c2n1 | ≥ 100 µM
COc1ccccc1N1CCN(c2ccc3ccccc3n2)CC1 | ≥ 100 µM

Study 3
Compound: CSc1nc(-c2ccnc(N[C@@H](C)c3ccccc3)c2)c(-c2ccc(F)cc2)[nH]1 (racemic)
Read-out: enzyme activity
Mode: inhibitor
Concentration: 0.5 µM
Reference: control
target | remaining activity [%]
Mitogen-activated protein kinase kinase kinase kinase 2 (MAP4K2, Homo sapiens, UniProt Q12851) | 82.5
Casein kinase II subunit alpha (CSNK2A1, Homo sapiens, UniProt P68400) | 100
Casein kinase I isoform alpha (CSNK1A1, Homo sapiens, UniProt P48729) | 82.6
Serine/threonine-protein kinase PLK2 (PLK2, Homo sapiens, UniProt Q9NYY3) | 94.3
Interleukin-1 receptor-associated kinase 4 (IRAK4, Homo sapiens, UniProt Q9NWZ3) | 82.6
Dual specificity mitogen-activated protein kinase kinase 6 (MAP2K6, Homo sapiens, UniProt P52564) | 80.5
Serine/threonine-protein kinase 38 (STK38, Homo sapiens, UniProt Q15208) | 104
MAP kinase-interacting serine/threonine-protein kinase 2 (MKNK2, Homo sapiens, UniProt Q9HBH9) | 105
Mitogen-activated protein kinase kinase kinase 10 (MAP3K10, Homo sapiens, UniProt Q02779) | 90.6
RAC-gamma serine/threonine-protein kinase (AKT3, Homo sapiens, UniProt Q9Y243) | 91.5
Serine/threonine-protein kinase WNK2 (WNK2, Homo sapiens, UniProt Q9Y3S1) | 118
Tyrosine-protein kinase BTK (BTK, Homo sapiens, UniProt Q06187) | 76.6
Mitogen-activated protein kinase 13 (MAPK13, Homo sapiens, UniProt O15264) | 93.9
Leucine-rich repeat serine/threonine-protein kinase 2 (LRRK2, Homo sapiens, UniProt Q5S007) | 100
Mast/stem cell growth factor receptor Kit (KIT, Homo sapiens, UniProt P10721) | 92.4
Protein kinase C delta type (PRKCD, Homo sapiens, UniProt Q05655) | 89.1
Tyrosine-protein kinase Lyn (LYN, Homo sapiens, UniProt P07948) | 98.5
Ephrin type-A receptor 5 (EPHA5, Homo sapiens, UniProt P54756) | 106
Serine/threonine-protein kinase Nek4 (NEK4, Homo sapiens, UniProt P51957) | 102
Protein kinase C iota type (PRKCI, Homo sapiens, UniProt P41743) | 91.9
Serine/threonine-protein kinase Chk1 (CHEK1, Homo sapiens, UniProt O14757) | 101
Cyclin-dependent kinase 9, with cyclin T1 (CDK9, Homo sapiens, UniProt P50750) | 99.1

Study 4
SMILES: FC(F)(F)c1ccc2c(c1)nc(-c1cccnc1)n2C1CC1
Read-out: cell-free assay
Method: competition with immobilised ligand
Concentration: 1 µM
target | remaining binding
Phosphatidylinositol 4,5-bisphosphate 3-kinase catalytic subunit delta isoform (PIK3CD, Homo sapiens, UniProt O00329) | 81%
Mitogen-activated protein kinase kinase kinase kinase 5 (MAP4K5, Homo sapiens, UniProt Q9Y4K4) | 100%
Casein kinase I isoform alpha (CSNK1A1, Homo sapiens, UniProt P48729) | 90%
SNF-related serine/threonine-protein kinase (SNRK, Homo sapiens, UniProt Q9NRH2) | 82%
Tyrosine-protein kinase ABL1, non-phosphorylated (ABL1, Homo sapiens, UniProt P00519, H396P) | 82%
Serine/threonine-protein kinase 4 (STK4, Homo sapiens, UniProt Q13043) | 100%
RAF proto-oncogene serine/threonine-protein kinase (RAF1, Homo sapiens, UniProt P04049) | 76%
Serine/threonine-protein kinase NLK (NLK, Homo sapiens, UniProt Q9UBE8) | 100%
Mast/stem cell growth factor receptor Kit (KIT, Homo sapiens, UniProt P10721) | 100%
Serine/threonine-protein kinase Sgk3 (SGK3, Homo sapiens, UniProt Q96BR1) | 100%
Mitogen-activated protein kinase kinase kinase 14 (MAP3K14, Homo sapiens, UniProt Q99558) | 100%
Ribosomal protein S6 kinase alpha-4, C-terminal kinase domain (RPS6KA4, Homo sapiens, UniProt O75676) | 100%
Non-receptor tyrosine-protein kinase TNK1 (TNK1, Homo sapiens, UniProt Q13470) | 100%
Tyrosine-protein kinase ABL1, non-phosphorylated (ABL1, Homo sapiens, UniProt P00519) | 97%
Dual specificity mitogen-activated protein kinase kinase 7 (MAP2K7, Homo sapiens, UniProt O14733) | 100%
Phosphatidylinositol 4,5-bisphosphate 3-kinase catalytic subunit alpha isoform (PIK3CA, Homo sapiens, UniProt P42336, H1047Y) | 78%
Serine/threonine-protein kinase 38 (STK38, Homo sapiens, UniProt Q15208) | 93%
BDNF/NT-3 growth factors receptor (NTRK2, Homo sapiens, UniProt Q16620) | 100%
TRAF2 and NCK-interacting protein kinase (TNIK, Homo sapiens, UniProt Q9UKE5) | 100%
Mast/stem cell growth factor receptor Kit (KIT, Homo sapiens, UniProt P10721, A829P) | 100%
Tyrosine-protein kinase Yes (YES1, Homo sapiens, UniProt P07947) | 100%
Serine/threonine-protein kinase TAO1 (TAOK1, Homo sapiens, UniProt Q7L7X3) | 100%
Mast/stem cell growth factor receptor Kit (KIT, Homo sapiens, UniProt P10721, T670I/V559D) | 100%
Serine/threonine-protein kinase BRSK1 (BRSK1, Homo sapiens, UniProt Q8TDC3) | 100%
Hepatocyte growth factor receptor (MET, Homo sapiens, UniProt P08581) | 100%

Some of these lines once more (study 3):
target | remaining activity [%]
Mast/stem cell growth factor receptor Kit (KIT, Homo sapiens, UniProt P10721) | 92.4
Protein kinase C delta type (PRKCD, Homo sapiens, UniProt Q05655) | 89.1
Tyrosine-protein kinase Lyn (LYN, Homo sapiens, UniProt P07948) | 98.5
Ephrin type-A receptor 5 (EPHA5, Homo sapiens, UniProt P54756) | 106
Serine/threonine-protein kinase Nek4 (NEK4, Homo sapiens, UniProt P51957) | 102
Protein kinase C iota type (PRKCI, Homo sapiens, UniProt P41743) | 91.9
Serine/threonine-protein kinase Chk1 (CHEK1, Homo sapiens, UniProt O14757) | 101
